Experimental data collected from several papers.
Every numbered part comes from another study and shows a few of its results, in no order. Changes are numbered by the printed parent chain.

Sample 1
Target: RING finger protein unkempt homolog, zinc fingers 1-6, GST-SBP tag (UNK, Homo sapiens, UniProt Q9C0B0, residues 30-357)
Sequence of UniProt Q9C0B0 (30-357, looked up): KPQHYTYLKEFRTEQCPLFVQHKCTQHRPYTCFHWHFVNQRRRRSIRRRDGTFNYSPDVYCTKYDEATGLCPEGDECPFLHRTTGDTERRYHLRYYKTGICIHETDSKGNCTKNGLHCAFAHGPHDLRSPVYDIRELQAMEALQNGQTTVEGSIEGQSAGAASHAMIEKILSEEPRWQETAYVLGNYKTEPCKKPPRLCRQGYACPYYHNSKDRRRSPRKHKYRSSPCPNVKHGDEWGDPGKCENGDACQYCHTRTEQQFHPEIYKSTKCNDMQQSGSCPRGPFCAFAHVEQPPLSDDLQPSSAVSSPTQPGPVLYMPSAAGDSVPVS
Method: RNA Bind-n-Seq
Molecule type: RNA
Sample: in vitro
Concentration: not given
Setting: RNA with constant flanks, human-mouse chimeric sites, ends assumed
Reference: input RNA pool
Reading: higher = stronger binding
Constant ends, left off below: GGGAGUUCUACAGUCCGACGAUC … CAACAGAGGAUUGAGCAUCA
| Strand | bound/input enrichment [ratio] |
| --- | --- |
| UUAAACAGUUGAACUGUGGACUCUGAUGGCCUCCAUCUCUCAGGCACGUGUGCCUUCUCUUAGUCCCUGUUUUCGGGAUGUUAUGAAUCUCAGUACUGUGGUUUGAAAGCACCAGCUUUG | 0.197 |
| GAUGAUAAUCACACAAACAAGUCACUGUUACAUGACCAGCCUUGGGAUUCUUUUCCUGAUUAGUAUUCUCCCUGGAACCACUGGUCAAGGGGAAUCAAGACGACAAGAACCCGGGGACUU | 0.173 |
| UCUGGCCACACUCGUGUGUAUGGUGUUUGCUUUGUGGACACUUCACUGGGCAAGUUUUUCAUAGGUCAGUUUUCGGAUGACCGCCACUGUUCCAGAUUUAGGACGCUAGUGGCUCACUAU | 0.259 |
| UCAUUUUUCUCUUUUCUUUCUUUCCUUUAGGAAAAGCCUAAAGAUUAGGUUGUAAGAAAAAUAGAAGCCAUGUUUCGAAGACCUGUGUUACAGGUACUUCGUCAGUUUGUAAGACAUGAG | 0.45 |
| GCUCUUGGGAAUGUAAUCAGCGCCUUGGGGGACAAGAGCAAGAGAGCCACACAUGUCCCUUACAGAGACUCUAAGCUGACAAGACUCCUACAGGAUUCCCUUGGGGGUAACAGCCAAACC | 0.126 |
| UUUGUUUUUGUAACUUAUGUAAAAGGUUCCCCCCCCCUACUGUCAAAAAAUAUGCAUGUAUAGUAAUUAGGACUUCAUUCCUCCAUGUUUUCUUCCCUUAUCUUACUGUCAUUGUCCUUA | 2.65 |
| GAGUCGAGCAAACUUGAAACAAUUCGUUAUCUUGCAGCCUCAGUGUUUUUACUUGCCGCGAUAGCAUUGGGGUUUUAUAGGUUCUGGGGAAGUAGUAGACGAUGAUGCUGCCGCUGCUGC | 0.846 |
| CUUAAUGUUAAUAUUUUUAAAGGAAGCAAGCUAAAAUUUUGCUUUCUGGUACAACACGCAUUAAUAAAAGGUUAAGUUUUGUUUUCCACUGAAGUACUAUUUAACAUCUCAGAAAAAAAC | 0.21 |

Sample 2
Target: Histone acetyltransferase KAT6A, both winged helices, GST fusion (KAT6A, Homo sapiens, UniProt Q92794, residues 1-181)
Method: protein binding microarray
Molecule type: double-stranded DNA, one strand shown
Sample: in vitro
Concentration: not given
Setting: 8-mer, flanks averaged, mean of 2 arrays, mostly near background
Reference: not given
Reading: higher = stronger binding
Target sequence (chain): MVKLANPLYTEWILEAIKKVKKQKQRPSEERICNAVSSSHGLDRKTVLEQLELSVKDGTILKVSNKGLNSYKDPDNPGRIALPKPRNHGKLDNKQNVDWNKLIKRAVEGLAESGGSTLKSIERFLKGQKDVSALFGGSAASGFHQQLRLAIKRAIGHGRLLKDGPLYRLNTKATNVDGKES
| Strand | E-score |
| --- | --- |
| ATGATTGC | 0.0153 |
| ACTGGCAC | -0.13 |
| CTGTTAGA | -0.0569 |
| ATCAGACC | 0.00545 |
| ACTACATG | 0.0302 |
| TCGTCACA | -0.0118 |
| AAGCGGCT | 0.257 |

Sample 3
Target: CCND2, cyclin fold, Cln2 fusion (human)
Method: yeast growth competition, sequencing
Sample: yeast
Setting: weak parent motif
Reference: not given
Reading: higher = stronger binding
Starting sequence: SCAPER docking peptide (human); SNARRSLNFGGST; partner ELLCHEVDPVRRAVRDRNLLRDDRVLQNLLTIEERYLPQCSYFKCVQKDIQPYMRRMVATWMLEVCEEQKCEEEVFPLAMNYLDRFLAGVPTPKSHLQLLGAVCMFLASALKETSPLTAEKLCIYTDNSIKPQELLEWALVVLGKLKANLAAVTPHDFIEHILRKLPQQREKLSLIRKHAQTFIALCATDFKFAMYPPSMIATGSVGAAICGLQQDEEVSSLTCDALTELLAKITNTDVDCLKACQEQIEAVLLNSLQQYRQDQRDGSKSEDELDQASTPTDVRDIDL
| Variant | normalised enrichment score |
| --- | --- |
| SNARRSLNYGGST [F9Y] | -0.0133 |
| SNARRSLNFNGST [G10N] | 0.142 |
| SNARRSLNWGGST [F9W] | 0.84 |
| SNARRSLNFGGCT [S12C] | 0.252 |
| RNARRSLNFGGST [S1R] | 0.0708 |
| SNDRRSLNFGGST [A3D] | -0.135 |
| SNARRSLNPGGST [F9P] | 0.0691 |
| SHARRSLNFGGST [N2H] | 0.112 |
| SNADRSLNFGGST [R4D] | 0.315 |
| SNARRSLNFFGST [G10F] | 0.101 |
| YNARRSLNFGGST [S1Y] | 0.755 |

Other studies, line by line
| Substance | target | assay | system | conditions | scale | endpoint | result |
| --- | --- | --- | --- | --- | --- | --- | --- |
| PhoQ, residues 284 288 289 292 302 303 ASSHFY | PhoP, residues 12 14 15 18 19 SEGLL (Escherichia coli, UniProt P23836) | Sort-seq, item: YFP reporter | E. coli | PhoQ-PhoP variant library, together with: 10 µM Mg2+ | reference: high Mg2+ state, higher = stronger signaling | fold induction | 11.9 |

Repeated from above (sample 1):
| Strand | bound/input enrichment [ratio] |
| --- | --- |
| GCUCUUGGGAAUGUAAUCAGCGCCUUGGGGGACAAGAGCAAGAGAGCCACACAUGUCCCUUACAGAGACUCUAAGCUGACAAGACUCCUACAGGAUUCCCUUGGGGGUAACAGCCAAACC | 0.126 |
| UUUGUUUUUGUAACUUAUGUAAAAGGUUCCCCCCCCCUACUGUCAAAAAAUAUGCAUGUAUAGUAAUUAGGACUUCAUUCCUCCAUGUUUUCUUCCCUUAUCUUACUGUCAUUGUCCUUA | 2.65 |
| GAGUCGAGCAAACUUGAAACAAUUCGUUAUCUUGCAGCCUCAGUGUUUUUACUUGCCGCGAUAGCAUUGGGGUUUUAUAGGUUCUGGGGAAGUAGUAGACGAUGAUGCUGCCGCUGCUGC | 0.846 |
| CUUAAUGUUAAUAUUUUUAAAGGAAGCAAGCUAAAAUUUUGCUUUCUGGUACAACACGCAUUAAUAAAAGGUUAAGUUUUGUUUUCCACUGAAGUACUAUUUAACAUCUCAGAAAAAAAC | 0.21 |
